Measurements collected from several papers.
Lines come from different studies, so protocols differ.
Organism: Leishmania infantum
Effect on: parasite growth

The IC50 of C/C(=C\c1ccco1)[N+](=O)[O-] is reported as 2 µM (72 h, promastigote).
CCOC(=O)c1c(C(=O)OC)cn(CC(c2cn(C)c3ccccc23)c2cn(C)c3ccccc23)c1C gave an IC50 of 3.7 µM (MTS; 72 h, promastigote).
O=C(Nc1ccc2c(c1)CN(c1ccc(F)c(F)c1)C2=O)N1CCN(c2ccc(F)cc2)CC1 gave an IC50 of 12.7 µM (imaging; intracellular, amastigote).
CCOC(=O)c1csc(NN=Cc2ccccc2[N+](=O)[O-])n1 gave an IC50 of 159 µM (72 h, promastigote).
The IC50 of CCOC(=O)c1cn(CC(c2c[nH]c3cc(Br)ccc23)c2c[nH]c3cc(Br)ccc23)c(C)c1C(=O)OC is reported as 6.6 µM (MTS; 72 h, promastigote).
O=C(Nc1ccc2c(c1)CN(c1ccc(Cl)c(Cl)c1)C2=O)N1CCN(c2ccc(Cl)cc2)CC1 gave an IC50 of greater than 64 µM (Giemsa stain; primary peritoneal mouse macrophages, MHOM/MA(BE)/67 amastigotes; 5 d).
O=[N+]([O-])/C=C/c1ccc(Br)o1 gave an IC50 of 1.1 µM (72 h, promastigote).
The IC50 of O=C(Nc1ccc2c(c1)CN(c1ccccc1)C2=O)N1CC[C@H](O)C1 is reported as greater than 64 µM (Giemsa stain; primary peritoneal mouse macrophages, MHOM/MA(BE)/67 amastigotes; 5 d).
NNc1nnc(NN)c2ccccc12 has an IC50 of greater than 25 µM (MTT; 72 h, promastigote).
With CCCCCc1cn(CCCCCCCCCCCOP(=O)([O-])OCC[N+](C)(C)C)nn1 the IC50 was 6.6 µM (THP-1; 24 h, intracellular, amastigote).

For quick reference, copied from above:
The IC50 of O=C(Nc1ccc2c(c1)CN(c1ccccc1)C2=O)N1CC[C@H](O)C1 is reported as greater than 64 µM (Giemsa stain; primary peritoneal mouse macrophages, MHOM/MA(BE)/67 amastigotes; 5 d).
NNc1nnc(NN)c2ccccc12 has an IC50 of greater than 25 µM (MTT; 72 h, promastigote).
